Measured values from different studies.
Lines come from different studies, so protocols differ. ± marks the error that the study gave.

| SMILES | assay | system | setting | scale | measurement | value |
| --- | --- | --- | --- | --- | --- | --- |
| CSCC[C@H](NC(=O)[C@H](CC(=O)O)NC(=O)[C@H](Cc1ccccc1)NC(=O)[C@H](CCCNC(=N)N)NC(=O)[C@H](Cc1ccc(O)cc1)NC(=O)[C@H](CC(=O)O)NC(=O)[C@H](CCCNC(=N)N)NC(=O)[C@H](Cc1c[nH]c2ccccc12)NC(=O)[C@@H](NC(=O)[C@H](Cc1c[nH]c2ccccc12)NC(=O)[C@@H](N)CCCNC(=N)N)C(C)C)C(=O)NCC(=O)N[C@@H](Cc1ccccc1)C(=O)N[C@@H](CC(=O)O)C(=O)N[C@@H](Cc1c[nH]c2ccccc12)C(=O)N[C@H](C(=O)N[C@@H](Cc1c[nH]c2ccccc12)C(=O)N[C@@H](CCC(=O)O)C(=O)O)C(C)C | circular dichroism | phosphate buffer | pH 6.5 |  | Tm | 25.3 ± 0.1 °C |
| O=C(NCCS)c1cccc(C(=O)NCCS)c1 |  | male Sprague-Dawley rat, plasma | intravenous, 1 mg/kg, 3 h |  | concentration | 82.4 ng/mL |
| COc1ccc(C[C@@H]2NC(=O)[C@H]([C@@H](C)O)NC(=O)[C@@H]3[C@@H]4CCN3C(=O)[C@@H]3Cc5cn(c6ccc(F)cc56)CCCCCCN(Cc5ccc(cc5)CCNC(=O)[C@]5(C)CCCN5C2=O)C(=O)CCC(=O)N[C@@H](C)C(=O)N[C@H](CNC(=O)CCCCC[N+](C)(C)C)C(=O)N[C@@H](Cc2cccc(c2)CNC(=O)CO4)C(=O)N3)cc1 |  | fasted healthy humans, plasma | oral, 35 mg single dose, with 1800 mg Labrasol, geometric mean |  | CL/F | 716 mL/min |
| CC[C@H](C)[C@H](NC(=O)[C@H](CO)NC(=O)[C@H](C)NC(=O)[C@@H](NC(=O)CNC(=O)[C@H](CO)NC(=O)[C@@H](NC(=O)[C@@H](NC(=O)[C@H](Cc1c[nH]cn1)NC(=O)[C@@H]1CCCN1C(=O)[C@@H](NC(=O)[C@H](CC(C)C)NC(=O)[C@H](CO)NC(=O)[C@H](CC(C)C)NC(=O)[C@@H](N)Cc1ccccc1)[C@@H](C)CC)[C@@H](C)CC)C(C)C)C(C)C)C(=O)N[C@@H](C)C(=O)N[C@@H](CCCCN)C(=O)N[C@@H](Cc1c[nH]cn1)C(=O)N[C@@H](Cc1ccccc1)C(N)=O | UPLC-MS/MS | rat plasma | 0.2 µg/mL, three freeze-thaw cycles |  | concentration found | 207 ng/mL |
| CN[C@@](C)(C[18F])C(=O)O |  | SCID mouse U87 xenograft, brain | 15 min, post injection |  | tissue uptake | 0.6 ± 0.2 %ID/g |
| CC(C)C(=O)OC[C@H]1O[C@@H](n2ccc(NO)nc2=O)[C@H](O)[C@@H]1O |  | rat blood dialysate | 5 ng/mL, 6 h, room temperature, bench-top stability, added: NHC 25 ng/mL |  | remaining compound | 106 ± 1.73% |
| CCCCCOc1ccc(-c2cc(-c3ccc(C(=O)N[C@H]4C[C@@H](O)[C@@H](O)NC(=O)[C@@H]5[C@@H](O)[C@@H](C)CN5C(=O)[C@H]([C@H](O)CC(N)=O)NC(=O)[C@H]([C@H](O)[C@@H](O)c5ccc(O)c(OS(=O)(=O)O)c5)NC(=O)[C@@H]5C[C@@H](O)CN5C(=O)[C@H]([C@@H](C)O)NC4=O)cc3)no2)cc1 |  | human children aged 6-11 years, plasma | intravenous, 3 mg/kg once daily, day 7, mean |  | clearance at steady state | 0.205 mL/min/kg |
| CCNc1nc(Cl)nc(NCC)n1 | LC-MS/MS | herbicide solution | 2 h, 4 °C, added: 254 nm UV exposure |  | remaining amount | 11.7 ± 1.61% |
| CC(=O)N[C@H](CCCCN)C(=O)N[C@H](CC(C)C)C(=O)N[C@@H](CCN)C(=O)N[C@H](CO)C(=O)N[C@H](CC(C)C)C(=O)N[C@H](CC(C)C)C(=O)N[C@@H](CCN)C(=O)N[C@@H](C(=O)N[C@H](CC(C)C)C(=O)N[C@H](CO)C(=O)N[C@@H](CCN)C(=O)N[C@H](C)C(=O)N[C@H](C)C(=O)N[C@H](C)C(=O)N[C@H](C)C(=O)N[C@H](C)C(=O)N[C@H](CC(C)C)C(=O)N[C@@H](CCN)C(=O)N[C@@H](C(=O)N[C@H](CC(C)C)C(=O)N[C@H](CC(C)C)C(=O)N[C@@H](CCN)C(=O)N[C@H](C)C(=O)N[C@H](CC(C)C)C(=O)N[C@H](CO)C(=O)N[C@@H](CCN)C(N)=O)[C@H](C)O)[C@H](C)O | RP-HPLC temperature profiling |  | pH 2 | relative to: random coil control | self-association parameter | 12.5 min |
| [123I]c1cncc(OC[C@@H]2CCN2)c1 | SPECT | human, pons | intravenous bolus, 8.6 mCi | relative to: plasma | tissue/plasma ratio | 25.2 |
| Cc1cc(C)c(/C=C2\C(=O)Nc3ccccc32)[nH]1 |  | zebrafish embryos | 48 h |  | EC100 toxicity | 5 µM |
| O=C(Nc1ccc(F)cc1)c1ccc(SCc2cc(OC(F)(F)F)ccc2B(O)O)nc1 |  | rat | p.o., 1 mg/kg |  | AUC | not detected |
